Measured values gathered from unrelated publications.
Lines come from different studies, so protocols differ. ± gives the spread as reported. ≈ marks a conversion by molar mass, not a printed value.

The chains behind the UniProt entries cited, without tags or fusion partners.
UniProt P33981, whole entry: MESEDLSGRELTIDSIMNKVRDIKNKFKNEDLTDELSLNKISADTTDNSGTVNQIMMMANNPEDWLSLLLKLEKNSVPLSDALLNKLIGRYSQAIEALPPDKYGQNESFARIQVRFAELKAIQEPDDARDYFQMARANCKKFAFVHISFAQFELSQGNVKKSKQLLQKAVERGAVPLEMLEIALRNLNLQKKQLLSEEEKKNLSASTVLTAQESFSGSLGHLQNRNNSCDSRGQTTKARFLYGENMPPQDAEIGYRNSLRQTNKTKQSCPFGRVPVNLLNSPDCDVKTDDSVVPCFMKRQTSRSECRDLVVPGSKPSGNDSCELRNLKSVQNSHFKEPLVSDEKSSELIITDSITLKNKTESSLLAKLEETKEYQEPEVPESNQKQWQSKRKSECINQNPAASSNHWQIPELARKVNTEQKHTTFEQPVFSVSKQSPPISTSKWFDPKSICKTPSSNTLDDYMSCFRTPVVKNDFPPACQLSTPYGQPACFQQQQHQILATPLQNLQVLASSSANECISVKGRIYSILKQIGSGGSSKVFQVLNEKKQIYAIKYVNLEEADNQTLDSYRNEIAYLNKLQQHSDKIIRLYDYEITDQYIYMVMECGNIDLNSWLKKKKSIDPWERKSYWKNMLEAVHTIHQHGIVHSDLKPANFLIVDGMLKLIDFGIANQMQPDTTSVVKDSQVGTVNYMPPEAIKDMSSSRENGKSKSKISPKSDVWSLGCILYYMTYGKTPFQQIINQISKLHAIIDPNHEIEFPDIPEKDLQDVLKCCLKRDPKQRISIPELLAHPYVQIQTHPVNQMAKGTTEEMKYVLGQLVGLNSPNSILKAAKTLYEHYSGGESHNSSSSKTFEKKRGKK
UniProt Q9H093, whole entry: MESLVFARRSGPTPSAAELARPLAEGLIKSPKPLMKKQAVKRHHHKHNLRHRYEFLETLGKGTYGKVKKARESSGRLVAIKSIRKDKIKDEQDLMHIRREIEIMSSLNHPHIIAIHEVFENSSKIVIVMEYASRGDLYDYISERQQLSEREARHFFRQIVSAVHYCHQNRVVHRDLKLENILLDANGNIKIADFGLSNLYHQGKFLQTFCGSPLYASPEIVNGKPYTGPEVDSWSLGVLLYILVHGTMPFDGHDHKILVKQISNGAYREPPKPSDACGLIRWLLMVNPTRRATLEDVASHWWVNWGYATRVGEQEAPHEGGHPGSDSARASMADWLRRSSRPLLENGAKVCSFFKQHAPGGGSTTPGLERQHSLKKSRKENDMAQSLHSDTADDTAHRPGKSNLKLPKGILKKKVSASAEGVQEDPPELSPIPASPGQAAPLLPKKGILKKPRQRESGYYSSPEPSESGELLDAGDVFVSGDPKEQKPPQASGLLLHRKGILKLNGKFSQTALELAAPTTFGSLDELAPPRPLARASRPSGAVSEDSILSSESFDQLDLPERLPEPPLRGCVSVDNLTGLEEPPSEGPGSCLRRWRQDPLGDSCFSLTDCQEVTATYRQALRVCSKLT

For `CCCSc1nc(N[C@@H]2C[C@H]2c2ccc(F)c(F)c2)c2nnn([C@@H]3C[C@H](OCCO)[C@@H](O)[C@H]3O)c2n1`, the plasma concentration was 371 ± 296 ng/mL (STEMI patients, plasma; 180 mg loading dose, 12 h, with: morphine).
`CCCCCCCCCCCCCCCC(=O)NCCCC[C@H](NC(=O)CNC(=O)[C@H](CO)NC(=O)CNC(=O)[C@@H](NC(=O)[C@@H](NC(=O)[C@@H](NC(=O)[C@H](CO)NC(=O)[C@H](CO)NC(=O)[C@H](CCC(N)=O)NC(=O)[C@H](Cc1c[nH]cn1)NC(=O)[C@H](Cc1c[nH]c2ccccc12)NC(=O)[C@H](CC(N)=O)NC(=O)CNC(=O)[C@@H](NC(=O)[C@H](CO)NC(=O)[C@H](CC(=O)O)NC(=O)[C@H](CC(C)C)NC(=O)[C@@H](NC(=O)[C@H](CCCCN)NC(=O)[C@H](CC(N)=O)NC(=O)[C@H](CO)NC(=O)[C@H](CCCNC(=N)N)NC(=O)[C@H](CCCNC(=N)N)NC(=O)[C@@H](NC(=O)[C@H](Cc1c[nH]c2ccccc12)NC(=O)[C@H](CCC(=O)O)NC(=O)[C@H](CCCCN)NC(=O)[C@H](CO)NC(=O)[C@H](CCC(=O)O)NC(=O)[C@H](CCC(=O)O)NC(=O)[C@H](CC(C)C)NC(=O)[C@H](CC(=O)O)NC(=O)[C@H](CO)NC(=O)[C@H](CCCCN)NC(=O)[C@@H](NC(=O)[C@H](CCCCN)NC(=O)[C@H](CC(N)=O)NC(=O)[C@H](CC(C)C)NC(=O)[C@@H](N)C(C)C)[C@@H](C)CC)[C@@H](C)CC)[C@@H](C)CC)[C@@H](C)CC)[C@@H](C)O)[C@@H](C)O)[C@@H](C)CC)C(=O)O` gave a solubility of 70 ± 20 µg/mL (≈ 14.6 µM) (PBS).
`Cc1cc(N(CCCl)CCCl)ccc1C(=O)O`: “apparent volume of distribution” 562 L/kg (mouse CD2F1; iv, 20 mg/kg of bendamustine).
The solubility of `CCCCCCCCCCCCCCCC(=O)NCCCC[C@H](NC(=O)CNC(=O)[C@H](CO)NC(=O)CNC(=O)[C@H](CCC(N)=O)NC(=O)[C@H](Cc1c[nH]cn1)NC(=O)[C@H](Cc1c[nH]c2ccccc12)NC(=O)[C@H](CCCCN)NC(=O)CNC(=O)[C@@H](NC(=O)[C@H](CO)NC(=O)[C@H](CCC(=O)O)NC(=O)[C@H](CC(C)C)NC(=O)[C@@H](NC(=O)[C@H](CCCCN)NC(=O)[C@H](CC(N)=O)NC(=O)[C@H](CO)NC(=O)[C@H](CCCNC(=N)N)NC(=O)[C@H](CCCNC(=N)N)NC(=O)[C@@H](NC(=O)[C@H](Cc1c[nH]c2ccccc12)NC(=O)[C@H](CCC(=O)O)NC(=O)[C@H](CCCCN)NC(=O)[C@H](CO)NC(=O)[C@H](CCC(=O)O)NC(=O)[C@H](CCC(=O)O)NC(=O)[C@H](CC(C)C)NC(=O)[C@H](CC(=O)O)NC(=O)[C@H](CCCCN)NC(=O)[C@H](CCCCN)NC(=O)[C@@H](NC(=O)[C@H](CCCCN)NC(=O)[C@H](CCCNC(=N)N)NC(=O)[C@H](CC(C)C)NC(=O)[C@@H](NC(=O)[C@H](CCC(=O)O)NC(=O)[C@H](CO)NC(=O)[C@@H](NC(=O)[C@H](CC(=O)O)NC(=O)[C@@H](NC(=O)[C@@H]1CCCN1C(=O)[C@H](CC(=O)O)NC(=O)[C@H](CC(C)C)NC(=O)[C@H](C)NC(=O)[C@@H](N)C(C)C)[C@@H](C)CC)[C@@H](C)CC)C(C)C)[C@@H](C)CC)[C@@H](C)CC)[C@@H](C)CC)[C@@H](C)CC)C(=O)O` is reported as > 50000 µg/mL (water).
For `C[C@H](Cc1ccc(O)c(O)c1)[C@@H](C)Cc1ccc(O)c(O)c1`, “total amount delivered” read 13.1 ± 0.34 µg (human skin; 3% w/v solution, 4 h).
The AUC(0-inf) of `O=C(Nc1ccccc1)c1cc([N+](=O)[O-])ccc1Cl` is reported as 49 ng·h/mL (LC-MS/MS; Sprague-Dawley rat, male, plasma; intravenous, 2.5 mg/kg).
With `Cc1cc(N(CCOS(C)(=O)=O)CCOS(C)(=O)=O)ccc1C(=O)O` the half-life was 4 min (chemical stability; PBS; 10 µg/mL).
`CC[C@@H](C(N)=O)N1CCCC1=O` gave a terminal half-life of 97 min (LC-MS/MS; rat, paraoxon-induced status epilepticus, whole blood; intramuscular, 50 mg/kg levetiracetam, with: atropine 5 mg/kg).
For `CC#C/C(=N\OC[C@H]1COCCN1)c1ccc2ncnc(Nc3ccc(OCc4cccc(F)c4)c(Cl)c3)c2c1`, the inhibition was -4.1% (TTK (Homo sapiens, UniProt P33981); kinase activity; 10 µM).
The remaining peptide of `CC(C)C[C@H](NC(=O)[C@@H]1C[C@@H](O)CN1C(=O)[C@H](Cc1ccccc1)NC(=O)[C@H](CO)NC(=O)[C@H](C)NC(=O)[C@H](Cc1ccccc1)NC(=O)[C@@H](NC(=O)[C@H](CCC(=O)O)NC(=O)[C@H](Cc1c[nH]cn1)NC(=O)[C@@H](NC(=O)[C@@H](NC(=O)[C@H](CCC(N)=O)NC(=O)[C@H](C)NC(=O)[C@@H](N)CC(=O)O)[C@@H](C)O)C(C)C)C(C)C)C(=O)N[C@@H](CC(=O)O)C(=O)N[C@@H](CO)C(=O)N[C@@H](CC(=O)O)C(=O)NCC(=O)N[C@H]1CSSC[C@@H](C(N)=O)NC(=O)[C@H](Cc2ccc(O)cc2)NC(=O)[C@H](Cc2c[nH]cn2)NC(=O)[C@H](CCCCN)NC(=O)CNC(=O)[C@@H]2CSSC[C@H](NC1=O)C(=O)N[C@@H](Cc1c[nH]c3ccccc13)C(=O)N[C@@H](CC(N)=O)C(=O)N1CCC[C@H]1C(=O)N[C@@H](C)C(=O)N2` is reported as 42.4 ± 0.82% (RP-HPLC; mouse serum 25% in water; 50 µM, 24 h, 37 °C).
`CCN1CCN(Cc2ccc(NC(=O)c3ccc(C)c(/C=C/c4cnc5[nH]ccc5c4OC)c3)cc2C(F)(F)F)CC1`: “log2 fold change” -0.166 (NUAK2 (Homo sapiens, UniProt Q9H093); inhibitor; 5 µM; relative to: no inhibitor).

Repeated from above:
`Cc1cc(N(CCCl)CCCl)ccc1C(=O)O`: “apparent volume of distribution” 562 L/kg (mouse CD2F1; iv, 20 mg/kg of bendamustine).
